Measured values of several laboratories.
A part holds a random share of what one study measured.

Study 1
Target: RNA binding protein fox-1 homolog 2, RRM domain, GST-SBP tag (RBFOX2, Homo sapiens, UniProt O43251-10, residues 100-194)
Method: RNA Bind-n-Seq
Form: RNA
Matrix: in vitro
Tested at: 365 nM
Setting: natural RNA segment, single round, ends assumed
Baseline: no-protein control
Direction: higher = stronger binding
Shared flanks, not repeated: GGGAGUUCUACAGUCCGACGAUC … UGGAAUUCUCGGGUGCCAA
Construct (chain): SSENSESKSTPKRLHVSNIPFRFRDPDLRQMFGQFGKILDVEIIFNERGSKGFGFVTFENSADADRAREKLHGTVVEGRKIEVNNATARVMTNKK
Strand | RBNS enrichment (R)
GCCCUGUCUACUUGGGCACCCCCACCACCUGUUAGCUGUGGUUGUGCACUGUCUUUUGUAGCUCUGGACUGGAGGGGUAGAUGGGGAGUCAAUUACCCAUCACAUAAAUA | 1.19
GAAUGAGAGAACUGUGUAAACACCCCGCUGUUCCUUCAGUGCAACACAAUAAAACUCUGAAAUGAAGAUGCUUUGCUGUGCAUUGUUUGAAAGAUUACAAACAGCUGUUU | 0.409
AAUUAAGCCUCAUUCAGUAGGUCUGCUGUCUGGUGGAACUUACGGAACUCAUUUCCUCCUCUAUCCCCAGCCCUUCUCCUAACUAUGGUGAUAACCAGGGCCAUAGAAGA | 0.213
AGACCACACCUGGAAGAGUUUCUGGGCUGGCUUUAAGUCCUGUUUGAAAAAGCAACCCAGUCAGCUGACUUCCUCGUGCAAUGUGUUAAACUGUGAACUCUGCCCAUGUG | 1.65
GGUGACGCCACCCACAGAGAUUUAAUGAGCGUGGGCCUGGACCUUCCCCAGAUGCUGCCAGGCAGCCCCUCCCCAAGCCUCAAAGAAGCAUUUGCUGAGGAUGGAGAGGC | 0.562
GGCCUUUGAGAAAGGGUAGAAUUCUGGCUGGUAGAGCAGGUGAGAUGGGACAUUCCAAAGAACAGCCUGAGCCAAGGCCUAGUGGUAGUAAGAAUCUAGCAAGAAUUGAG | 0.512
AUCAGCCACAAUUCCUUUUGGAACUGUUACACUCUGCCUCUGGUCCCUCCAACGUGGUCCUCUUCCUGGCUGGAGGUGCUGGAUUCUGACUGCCAUCUUGCUCCAUGGUG | 0.325
GUUUUGUUUUCAAAGUGCUUACAAUGCAUGUAGACAUUGUUCUUUGUGGUCUGACUCUAUGAUCGAUCACAGUGACUUAGAUUCAGGAAAGAACAUUAACGUCACAAGUU | 0.507
GUUACUGGAUUAGCUCCCUCCUCCUGUGUGAUGGUACCAUGCAUAGAGUCAAUCAAAUCCUUGUGAUGUUUUGUAUGGACUUUGACAAUAUGUAAAUAAUGUGUAAAGCC | 0.841
GCAGUCUUCAUGCUGCCCUGCUGCUGCUGGAAGGAUGGGGAUCUUUCACCUUUAGGGAUCUCAGCACAAUUAGAAUCGUAAAGUGAAUUCUAUCUAUUUAAUUGGAUAUU | 0.574
UUCCAAUAGAAAAUUCCGCUUGACCUUUGGUGCACUGCCCACUUCCCAGCUCCACUGGCCCAAGUCUGAGCCGGAGGCCCUUGUUUUGGGGGCGGGGGGAGAGUUGGAUG | 0.77
CUUUCAAACUAAUGCCAGUGACUAGAGAGAGGUUUCAUUCAUGAUGUGUAUUUCCAAUUUGGUCUUCAAUUCAAGAGAUGCUUCAUAAAACACUUAUAGCCUUAAACCAU | 0.677

Study 2
Target: RING finger protein unkempt homolog, zinc fingers 1-6, SBP tag (UNK, Homo sapiens, UniProt Q9C0B0, residues 30-357)
Sequence of UniProt Q9C0B0 (30-357, looked up): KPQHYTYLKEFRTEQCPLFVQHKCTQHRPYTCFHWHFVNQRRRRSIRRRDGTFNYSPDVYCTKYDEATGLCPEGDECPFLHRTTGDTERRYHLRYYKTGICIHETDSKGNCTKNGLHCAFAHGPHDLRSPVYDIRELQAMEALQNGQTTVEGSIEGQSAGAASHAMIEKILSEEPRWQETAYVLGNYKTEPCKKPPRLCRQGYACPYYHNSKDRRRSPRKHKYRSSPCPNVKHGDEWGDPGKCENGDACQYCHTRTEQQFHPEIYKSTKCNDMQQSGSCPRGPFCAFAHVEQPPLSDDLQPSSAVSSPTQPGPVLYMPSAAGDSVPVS
Method: RNA Bind-n-Seq
Form: RNA
Matrix: in vitro
Tested at: 100 nM
Setting: RNA with constant flanks, vertebrate orthologous sites, ends assumed
Baseline: input RNA pool
Direction: higher = stronger binding
Shared flanks, not repeated: GGGAGUUCUACAGUCCGACGAUC … CAACAGAGGAUUGAGCAUCA
Strand | bound/input enrichment [ratio]
UAUUAGUGUCAUACCAGCAUAUUAACCUCCCGUCUGUACACAGCUUCCAAUGUUACCGUCUAGUUAGAUUUUUAUUUAAAAUAUGAAAAACUGCUUUUCCCAAGACGUUUUUUAAAAACA | 1.32
UCUCUCACUUAGCUGUGUCCAAAAUUGCUAUGAGGGUUGGAAACAUUGAUUAGUUUCAUGUAGAACUACACUGGCAGGUGCUUAGUUACCAUCAUAGCAAGGUCAAACACCAUCACAGUA | 1.36
GCACUGCUUGUGCAGAUUCCACAACACUGAAUGCAAAGUAGCAAUUUUCAUAGUCACAGUAAAGUAGUAUUAGGGUAACAUGCCAUGGUUUUACUCAUGUGCAGAUUGACAAUGUACAAU | 1.54
AAAUUUAUUUCAUGCCCUGGACUCCCUACCGCACUGAUACUUUGAUAGAGUAUGCUUCUUUAGAAGAUUUCCAAAACAGCCGCCAAACAACAACAUACAAACUUCCAAAUCGAGUAGAUG | 1.39
AAGAUGGUGGUUGUACAUUAUUUCAUUUAGAAAAUAUAAAAACUCAUUUUGUUUUGAAGCUAGGUGUUAAACUGGAAUAGCUCUGAUACCCCAGAGAAUGGGGCAAUUGUGCCCUUCCCU | 1.06
UUGGGAACAGCUCUCCAAACAGGAAUAGUAGUAAAAAAAAUAAGCAAAAUGAUAUUUGUAUAGAAAAAACAGAAGUUAAAUCAUGUAAAGUAAAUGCUACCAACCUUCCAGGUCCUAAAG | 0.892
UUGUGGGGGUGGGGGUGGGGAAGGGAAGAUGUAUGGAUGUUACUGGCAUUUUUAAGUGUUUAGAAUCUUUUUUUUUCCUCCUGUUUUUCUGUUUUGCAUUUUCUCUUUAAUCAGAUGCAC | 2.98
AUGUAGUUUGUUUUUAAUUUCAAGCAAAAUCUUAUUGUACUUGAAUGUGCCCUGUUUUGUUAGCACACCUAGGCUUGCUGUAACUGUACUCAUGUCCCAGGAUGUACGUUCUUUCUAUGA | 0.867
UUCCAUUUAACCGUUCAACCAGUUGUCUCCCUGGCCUUCUUUUUCUUGCUGCCCCGAGGUUGGAUUCUUUUAUUUUUCCUUACUGGGUUUUCCACGUGAGCAUGCUGUUAGUUCUAGCCA | 0.671
AGCAACGCAAGGAUUCAGGACUGGUUACACCAACCUGCCAAGUAGAUCUGGAAUUAAUAACAACAGACUUGGGCCACCAAGACCGUGAUGUGCUCUGACUUGAUUCUGCUAAGGAACCUU | 0.147
CUCUCUGAGCGAUAGUAUUCCGUCUGUAGCAGAUUCGCACUCCAGCCAUUUCUCUGAGUUCAGCUGCUCAGAUAUGGAAAGUAUGAAAACUUCCUGUAGCCAUGGUUCCAGCGACUAUCA | 0.217

Study 3
Target: Transcriptional repressor CTCF (CTCF, Homo sapiens, UniProt P49711, residues 1-727, full length assumed)
Sequence of UniProt P49711 (whole entry, looked up): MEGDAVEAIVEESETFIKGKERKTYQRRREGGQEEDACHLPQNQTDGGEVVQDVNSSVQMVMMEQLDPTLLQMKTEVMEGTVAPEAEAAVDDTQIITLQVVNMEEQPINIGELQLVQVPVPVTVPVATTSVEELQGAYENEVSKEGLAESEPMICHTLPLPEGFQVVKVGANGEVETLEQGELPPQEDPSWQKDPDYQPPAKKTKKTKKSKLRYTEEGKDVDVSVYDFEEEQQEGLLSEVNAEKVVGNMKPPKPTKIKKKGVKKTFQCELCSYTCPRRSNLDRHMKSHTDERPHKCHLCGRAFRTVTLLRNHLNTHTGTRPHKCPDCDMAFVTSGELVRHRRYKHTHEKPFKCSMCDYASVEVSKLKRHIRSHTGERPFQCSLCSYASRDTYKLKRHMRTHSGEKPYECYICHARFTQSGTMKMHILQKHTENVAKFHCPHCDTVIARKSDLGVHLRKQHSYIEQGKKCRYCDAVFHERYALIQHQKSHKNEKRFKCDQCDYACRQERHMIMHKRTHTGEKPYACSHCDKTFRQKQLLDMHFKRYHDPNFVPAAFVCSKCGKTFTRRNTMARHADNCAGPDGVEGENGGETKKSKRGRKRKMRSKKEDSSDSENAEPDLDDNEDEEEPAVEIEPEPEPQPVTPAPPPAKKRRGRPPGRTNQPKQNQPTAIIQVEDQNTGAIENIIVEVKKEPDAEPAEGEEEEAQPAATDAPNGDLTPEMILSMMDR
Method: protein-binding microarray
Form: double-stranded DNA, one strand shown
Matrix: in vitro
Tested at: not given
Setting: k-mer, scored over probes, only values ≥0.25
Direction: higher = stronger binding
Strand | E-score
ATAATAAT | 0.346
ATACAAAA | 0.359
ATATATAA | 0.424
AATGGCGC | 0.36
ATACTCAA | 0.265
CGACAAAA | 0.271
TTATAAAA | 0.282
ATAATAAC | 0.351
GGAATTTA | 0.322
ATACACTA | 0.261
ATTATATG | 0.295
AATATAAT | 0.334

Study 4
Target: Histone acetyltransferase KAT6A, winged helix 1, GST fusion (KAT6A, Homo sapiens, UniProt Q92794, residues 1-85)
Method: protein binding microarray
Form: double-stranded DNA, one strand shown
Matrix: in vitro
Tested at: not given
Setting: 8-mer, flanks averaged, mean of 2 arrays, mostly near background
Baseline: not given
Direction: higher = stronger binding
Residues (chain): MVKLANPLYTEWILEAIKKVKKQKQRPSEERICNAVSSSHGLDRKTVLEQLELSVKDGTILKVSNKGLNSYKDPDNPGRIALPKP
Strand | E-score
AACCACAG | -0.197
CTCCGACC | 0.137
AGAATGAA | -0.0989
ACCCACGA | -0.222
ACTAAAAT | -0.151
AAAGCCAA | -0.118
CAGCCTAC | -0.11
ACGCACCC | 0.222
GAAGTGAC | 0.0376
GGCAGGAC | 0.0357
ACATCAAT | -0.133
GCAAACCA | -0.102
GCTATTGA | -0.023
GAATCAAA | -0.125
ACCAATCC | 0.043
ACCGCAGC | 0.175
ACGGTGAT | 0.0746

Study 5
Target: Sal-like protein 4, full length isoform B (SALL4, Homo sapiens, UniProt Q9UJQ4-2, residues 1-616)
Method: universal PBM
Form: double-stranded DNA, one strand shown
Matrix: in vitro
Tested at: not given
Setting: 8-mer, flanks averaged, mean of replicates
Direction: higher = stronger binding
Target sequence (chain): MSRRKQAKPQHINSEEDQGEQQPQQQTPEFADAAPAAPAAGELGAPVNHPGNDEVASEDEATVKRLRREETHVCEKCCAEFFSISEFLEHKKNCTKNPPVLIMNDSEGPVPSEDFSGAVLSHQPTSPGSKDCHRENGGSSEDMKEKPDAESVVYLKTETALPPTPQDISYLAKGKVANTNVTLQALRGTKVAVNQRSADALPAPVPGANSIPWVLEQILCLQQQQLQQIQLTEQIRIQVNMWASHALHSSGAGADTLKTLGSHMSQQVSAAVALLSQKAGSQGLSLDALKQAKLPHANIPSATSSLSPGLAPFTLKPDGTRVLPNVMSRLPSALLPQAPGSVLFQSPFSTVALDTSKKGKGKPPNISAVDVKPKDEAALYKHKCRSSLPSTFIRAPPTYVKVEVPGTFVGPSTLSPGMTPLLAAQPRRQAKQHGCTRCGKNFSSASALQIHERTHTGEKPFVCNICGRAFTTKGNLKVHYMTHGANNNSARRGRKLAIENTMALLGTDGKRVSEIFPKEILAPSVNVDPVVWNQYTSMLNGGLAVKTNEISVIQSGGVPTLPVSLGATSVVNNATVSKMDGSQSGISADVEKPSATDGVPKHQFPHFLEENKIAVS
Strand | E-score
GCAAAACC | -0.0949
CCCCGGTC | -0.327
GCTCTCTA | -0.0824
AGGGGGCA | -0.254
GCGTGCAC | -0.158
AGAGCTTC | -0.162
AGAGTCTG | -0.234
AACGACTC | -0.226
TAGAGTGA | 0.0448
ACCATTTG | 0.138
GCATCGCC | -0.122
GTTCCTGA | -0.18
TCCGGACA | -0.177
AGGTAGAG | -0.0874
AGCATCCA | -0.0821
AGGGCTGA | -0.162
ATTAGGAG | 0.108
AAGCCCGC | -0.232
ATTATTAG | 0.394
GGTTACCA | -0.199
AAGTGGTA | 0.0847
ATCTAGTG | 0.0832
ATGCATCC | -0.158
CGCATCAG | -0.0476
CTACCATC | -0.123

Some of these lines once more (study 2):
Strand | bound/input enrichment [ratio]
CUCUCUGAGCGAUAGUAUUCCGUCUGUAGCAGAUUCGCACUCCAGCCAUUUCUCUGAGUUCAGCUGCUCAGAUAUGGAAAGUAUGAAAACUUCCUGUAGCCAUGGUUCCAGCGACUAUCA | 0.217
GCACUGCUUGUGCAGAUUCCACAACACUGAAUGCAAAGUAGCAAUUUUCAUAGUCACAGUAAAGUAGUAUUAGGGUAACAUGCCAUGGUUUUACUCAUGUGCAGAUUGACAAUGUACAAU | 1.54
AGCAACGCAAGGAUUCAGGACUGGUUACACCAACCUGCCAAGUAGAUCUGGAAUUAAUAACAACAGACUUGGGCCACCAAGACCGUGAUGUGCUCUGACUUGAUUCUGCUAAGGAACCUU | 0.147
UUGGGAACAGCUCUCCAAACAGGAAUAGUAGUAAAAAAAAUAAGCAAAAUGAUAUUUGUAUAGAAAAAACAGAAGUUAAAUCAUGUAAAGUAAAUGCUACCAACCUUCCAGGUCCUAAAG | 0.892
UCUCUCACUUAGCUGUGUCCAAAAUUGCUAUGAGGGUUGGAAACAUUGAUUAGUUUCAUGUAGAACUACACUGGCAGGUGCUUAGUUACCAUCAUAGCAAGGUCAAACACCAUCACAGUA | 1.36
UUGUGGGGGUGGGGGUGGGGAAGGGAAGAUGUAUGGAUGUUACUGGCAUUUUUAAGUGUUUAGAAUCUUUUUUUUUCCUCCUGUUUUUCUGUUUUGCAUUUUCUCUUUAAUCAGAUGCAC | 2.98
AAAUUUAUUUCAUGCCCUGGACUCCCUACCGCACUGAUACUUUGAUAGAGUAUGCUUCUUUAGAAGAUUUCCAAAACAGCCGCCAAACAACAACAUACAAACUUCCAAAUCGAGUAGAUG | 1.39
UAUUAGUGUCAUACCAGCAUAUUAACCUCCCGUCUGUACACAGCUUCCAAUGUUACCGUCUAGUUAGAUUUUUAUUUAAAAUAUGAAAAACUGCUUUUCCCAAGACGUUUUUUAAAAACA | 1.32
